# Measurements from different studies.
# Parts stem from different laboratories: compare values within a part only. Positions count from the first letter of the parent shown.

# Set 1
# Target: Hepatocyte nuclear factor 3-beta, forkhead domain (FOXA2, Homo sapiens, UniProt Q9Y261, residues 142-269)
# Technique: protein-binding microarray
# Form: double-stranded DNA, one strand shown
# Sample: in vitro
# Concentration: not given
# Setting: k-mer, scored over probes, only values ≥0.25
# Reading: higher = stronger binding
# Residues (chain): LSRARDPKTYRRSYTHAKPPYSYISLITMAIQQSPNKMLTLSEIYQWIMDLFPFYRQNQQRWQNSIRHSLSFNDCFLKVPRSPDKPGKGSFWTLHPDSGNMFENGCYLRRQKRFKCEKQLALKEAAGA
Strand,E-score
ACACTGTA,0.288
AATATCGA,0.323
ACAACCAT,0.404
AATATATA,0.31
GACATACA,0.321
TATGATCA,0.257
ATTTTCTA,0.311
CATATTTA,0.428

# Set 2
# Target: Phosphate system positive regulatory protein PHO4, full length, GST-tagged (PHO4, Saccharomyces cerevisiae, UniProt P07270, residues 1-312)
# Technique: competition protein-binding microarray
# Form: double-stranded DNA, one strand shown
# Sample: in vitro
# Concentration: 2 µM
# Setting: whole 60-bp probe, lowest competitor level
# Together with: Cbf1 competitor, 0.05 µM
# Reading: higher = stronger binding
# Constant ends, left off below: … GTCTTGATTCGCTTGACGCTGCTG
# Construct (chain): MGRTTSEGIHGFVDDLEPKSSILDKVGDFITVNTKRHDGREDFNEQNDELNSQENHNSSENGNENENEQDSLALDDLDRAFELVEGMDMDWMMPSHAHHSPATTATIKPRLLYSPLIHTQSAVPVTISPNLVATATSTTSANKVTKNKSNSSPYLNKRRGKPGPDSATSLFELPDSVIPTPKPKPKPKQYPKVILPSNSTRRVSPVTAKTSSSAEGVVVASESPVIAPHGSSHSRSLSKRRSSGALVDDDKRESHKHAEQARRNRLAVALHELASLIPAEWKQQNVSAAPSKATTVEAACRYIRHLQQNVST
Strand,fluorescence intensity
CATTGGCAGAACCCGATCGTGGGACAGAACACCAAC,5480 a.u.
TTCGGGTGCCAATTTAGCGTGCTTTGATCTAACTAT,5670 a.u.
TCGCTCTTCGCTCTGAATGTGACGGCAAATTTCGAC,3810 a.u.
AGAGAGAACTTTGGACACGTTTATAAAAATTGACGG,12300 a.u.
CGTCCTAGTGATTGGGTTGTGGGTGCCATGAGGAAG,7280 a.u.
CTTTCCCGATCTTGTAATGTGGGTGTAGCACATTTG,5810 a.u.
CATACCCAACCTTTTCACGTGCTTTAAGATATTTGT,18300 a.u.
GTCTTGTCTCATTGTCACCAAACTTTCCCCACTTCA,4410 a.u.

# Set 3
# Target: Histone acetyltransferase KAT6A, winged helix 2, GST fusion (KAT6A, Homo sapiens, UniProt Q92794, residues 85-181)
# Technique: protein binding microarray
# Form: double-stranded DNA, one strand shown
# Sample: in vitro
# Concentration: not given
# Setting: 8-mer, flanks averaged, mean of 2 arrays, mostly near background
# Baseline: not given
# Reading: higher = stronger binding
# Residues (chain): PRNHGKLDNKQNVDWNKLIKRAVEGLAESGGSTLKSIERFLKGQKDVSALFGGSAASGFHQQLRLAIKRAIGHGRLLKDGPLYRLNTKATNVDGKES
Strand,E-score
CGTAATCC,-0.0585
ACACACCG,0.0354
AACACAGA,0.0868
ATGTGCTC,0.0742
ATCACGCA,0.154
CAACATCG,0.0719
CAGCGTCG,0.083
CCAATTGG,0.0695

# Single results of other studies
# Parent: PafA, mature enzyme, eGFP fusion (Elizabethkingia meningoseptica, UniProt Q9KJX5); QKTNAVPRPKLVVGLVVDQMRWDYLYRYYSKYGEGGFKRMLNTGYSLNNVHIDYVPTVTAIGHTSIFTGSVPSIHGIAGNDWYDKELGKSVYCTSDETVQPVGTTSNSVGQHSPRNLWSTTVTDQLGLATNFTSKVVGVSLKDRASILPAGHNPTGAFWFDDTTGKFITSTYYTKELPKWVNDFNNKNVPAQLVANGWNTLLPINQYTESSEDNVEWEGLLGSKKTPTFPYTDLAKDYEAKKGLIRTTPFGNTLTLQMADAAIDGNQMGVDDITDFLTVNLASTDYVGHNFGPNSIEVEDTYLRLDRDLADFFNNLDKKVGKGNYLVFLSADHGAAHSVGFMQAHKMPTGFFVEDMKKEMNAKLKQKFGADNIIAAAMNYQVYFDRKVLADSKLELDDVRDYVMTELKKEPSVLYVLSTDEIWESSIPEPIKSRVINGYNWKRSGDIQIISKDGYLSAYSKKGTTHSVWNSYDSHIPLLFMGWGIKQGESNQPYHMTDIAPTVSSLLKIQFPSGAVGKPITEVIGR
Change,target,assay,test system,setting,scale,endpoint,value
S457G,"vanadate, free oxyanion",microfluidic competitive inhibition,"in vitro, cell-free expressed","not given, derived from inhibition constants, unchanged parent 676 nM",lower = stronger binding,oxyanion analog dissociation constant,616 nM

# For quick reference, copied from above (set 3):
Strand,E-score
ACACACCG,0.0354
CCAATTGG,0.0695
